Measurements pooled from the literature.
Every numbered part comes from another study and shows a few of its results, in no order.

Series 1
Target: Histone acetyltransferase KAT6A, winged helix 1, GST fusion (KAT6A, Homo sapiens, UniProt Q92794, residues 1-85)
Technique: protein binding microarray
Form: double-stranded DNA, one strand shown
Medium: in vitro
Concentration: not given
Notes: 8-mer, flanks averaged, mean of 2 arrays, mostly near background
Reference: not given
Reading: higher = stronger binding
Construct (chain): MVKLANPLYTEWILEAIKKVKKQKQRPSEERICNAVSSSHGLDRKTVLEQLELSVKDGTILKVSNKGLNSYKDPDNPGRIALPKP
Strand	E-score
ATATTGCG	0.254
AAATACGC	0.15
CTCCCCAG	-0.148
AACAAATG	-0.0693
CTACAATA	0.115
ATGAGAGA	-0.224
ATAATGGG	-0.207
ATAACTAG	-0.0128
GCAGCCAA	-0.0535
CAAAAGAC	-0.0486
GCACTAAA	0.0463
ATGGGTCC	-0.092
ATAAGTTG	-0.247
ACTGCTAA	-0.069
GGAAGTTA	0.0534
GACCCTGC	-0.154
GCGATACC	0.224
ATTTGCGA	-0.161
ATTGGGCG	0.00732
CCTCCGAG	0.0393
CACGTAAG	-0.0582
CATGTGGA	-0.131

Series 2
Target: Interferon regulatory factor 5, full length, phosphomimetic (IRF5, Homo sapiens, UniProt Q13568-2, residues 1-514, K96S/S451D/S453D/S456D/S462D)
Technique: protein-binding microarray
Form: double-stranded DNA, one strand shown
Medium: in vitro
Concentration: 250 nM
Notes: 60-bp whole probe
Together with: salmon DNA 0.4 mg/ml
Reference: random background probes
Reading: higher = stronger binding
Constant ends, left off below: GCCTAGCAC … GTCTTGATTCGCTTGACGCTGCTG
Strand	log fluorescence [z-score]
TTAGGCTCCCTTTTCCTTTAGTGCTAG	-0.22
TCAATTTTCTCTTATTCACTGTGCTAG	1.88
TTCACTCTCTGCTTGTATCTGTGCTAG	1.13
TTTGAACTGAGTTTCGATTAGTGCTAG	9.46
TCAAGTCCCACATCTCTGACTGTGCTA	-0.31
GATGGACTGGGGACTGGGGACGTGCTA	-0.356
AAAGTCTTCACTCTGCTGAAGTGCTAG	0.151
GACGGTCTCCTTACCCTGACGTGCTAG	-0.218
TTAGGTTTCCGACTGCTTTAGTGCTAG	0.393
TCATTCTTGCATCTGGGACTGTGCTAG	0.413
ATCATTTTTGCTTACGATGCGTGCTAG	1.24
TTAGGTCTCCTTATCCTTTGGTGCTAG	-0.115
GACGGTTTCCTCTTCCTGACGTGCTAG	0.62
GACGGACTGGACTATCAGGACGTGCTA	-0.196
TTAGGTATCCTACTGCTATAGTGCTAG	-0.151
TTAGGTCTCGGACTGTGTTAGTGCTAG	-0.226
TTAGAACTGGGTCTCGGTTAGTGCTAG	0.11
TCACCTAGCCATTATGAGACTGTGCTA	-0.422
TTAGATATCAGTCACGATTAGTGCTAG	1.44
TCATTTTCCCCCCTCACACTGTGCTAG	0.854
TTCTTGCGGAGTTTCTTGCAGTGCTAG	0.709
TTAGGACTGGAATTTCGGTTAGTGCTA	5.84
GGATGTGTCTTAAATAGGGCAGTGCTA	-0.32
TTAGATTTCAATTCCGATTAGTGCTAG	1.56

Series 3
Target: Fragile X messenger ribonucleoprotein 1, C-terminal low-complexity region (Fmr1, Mus musculus, UniProt P35922)
Technique: RNA Bind-n-Seq
Form: RNA
Medium: in vitro
Concentration: 200 nM
Notes: whole 134-nt RNA, ends assumed
Together with: 150 mM KCl
Reference: input library
Reading: higher = stronger binding
Strand	log2 enrichment
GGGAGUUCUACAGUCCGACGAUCUUUCACAGAGAAGCAAAUGCUGGCACAAGGAUACCCUGCUUACACGACAUCGUGCGCCUGGCUGGGGUACUCAGAUGACACGUUGAAGCAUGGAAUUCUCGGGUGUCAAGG	-0.375
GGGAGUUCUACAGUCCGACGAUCACCAUGCAGGCGGGCAUCUUUGGGAAGUGGGGCAAGGGGGGGAUAGGGAGGGGGGUAACACUUUGGGAACAGGUGGUCCCAGGUCGUUUCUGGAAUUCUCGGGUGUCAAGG	0.952
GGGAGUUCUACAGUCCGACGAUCCACAGACAACACGCACCCACACAGACACAGAUGGAAGGGGUUGGGAUGGGGACAGGGUGCACAGCAGGGCGGGGUAGGACCCCAGCCCCUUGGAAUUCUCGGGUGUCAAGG	1.31
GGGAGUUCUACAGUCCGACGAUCCCUCUGGACGAGACCAGCCAGAUGAGCGACCUCCCGGUGAAGGUGAUCCACGUGGAGAGUGGGAAGAUCCUCACAGGCACAGAUGCCCCCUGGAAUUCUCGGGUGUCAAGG	0.0887
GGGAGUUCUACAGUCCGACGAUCCCUCAAGUCCUGUGCUACACAUCGUAUGUACCGAAUCGGGGCGGGCGGCGGGGAAAGUAUUAUGUUACGCCGUUCGGAUCUGCACUUCCAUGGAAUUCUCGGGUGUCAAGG	0.96
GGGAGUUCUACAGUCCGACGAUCUCAAGUCCUGUGCUACACAUCGUAUGUACCGAAUCGGAAAAAGGUUUUUGGAGGAAAGUAUUAUGUUACGCCGUUCGGAUCUGCACUUCCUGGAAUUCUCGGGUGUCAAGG	-0.625
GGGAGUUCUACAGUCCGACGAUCCUGUGCUACACAUCGUAUGUACCGAAUCGGGGAAAGGGGAAAAAAAGGGGUUUUUUUGGGGAAAGUAUUAUGUUACGCCGUUCGGAUCUGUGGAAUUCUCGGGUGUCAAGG	-0.204
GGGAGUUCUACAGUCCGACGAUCGUCCUGUGCUACACAUCGUAUGUACCGAAUCAAACCCCCAAACCCCCCCAAACCCAAAAAAGUAUUAUGUUACGCCGUUCGGAUCUGCACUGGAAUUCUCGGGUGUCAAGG	-0.224
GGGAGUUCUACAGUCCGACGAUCUGCUUGUUCUGGAGUGAUCUUCUGACUGGAAAAGAACUAUGUCAUGGAUCAAGGAAGGAGAGCUGUCACUUUGGGAGCGGUUCUGUGCCAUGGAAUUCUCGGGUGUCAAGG	0.618
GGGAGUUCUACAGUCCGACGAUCCUCAAGUCCUGUGCUACACAUCGUAUGUACCGAAUCGGGCCGGGCCGGGCCGGGAAAGUAUUAUGUUACGCCGUUCGGAUCUGCACUUCCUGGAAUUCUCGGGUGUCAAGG	0.218
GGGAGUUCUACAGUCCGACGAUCGCAGGAAGUAAAAACAAAUGGAAAGGCUUCGGAUAGUGGCAGGGGUGGGGGUUGCUAAGGAAAGGGUGGGAUGGGAGUGGGUAAAGAGUUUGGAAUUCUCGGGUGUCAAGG	-0.0333
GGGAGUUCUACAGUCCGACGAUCCAAGUCCUGUGCUACACAUCGUAUGUACCGAAUCGGGAAAGGGGAAAGGAAAGGGAAAGUAUUAUGUUACGCCGUUCGGAUCUGCACUUCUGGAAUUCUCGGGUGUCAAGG	-0.142
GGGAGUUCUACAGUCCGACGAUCAAGUCCUGUGCUACACAUCGUAUGUACCGAAUCGGGAAAAGGAAAAGGAAAAGGGGAAAGUAUUAUGUUACGCCGUUCGGAUCUGCACUUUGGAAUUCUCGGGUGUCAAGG	-0.342
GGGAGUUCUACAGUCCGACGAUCAGUCCUGUGCUACACAUCGUAUGUACCGAAUCGGGUUUUUGGGUUUGGGUUUUUGGGAAAGUAUUAUGUUACGCCGUUCGGAUCUGCACUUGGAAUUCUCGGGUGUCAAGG	0.322

Series 4
Target: RNA binding protein fox-1 homolog 2, RRM domain, GST-SBP tag (RBFOX2, Homo sapiens, UniProt O43251-10, residues 100-194)
Technique: RNA Bind-n-Seq
Form: RNA
Medium: in vitro
Concentration: 365 nM
Notes: natural RNA segment, single round, ends assumed
Reference: no-protein control
Reading: higher = stronger binding
Construct (chain): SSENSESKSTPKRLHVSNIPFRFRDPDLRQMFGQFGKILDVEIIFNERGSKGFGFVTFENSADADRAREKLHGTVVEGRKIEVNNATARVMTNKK
Strand	RBNS enrichment (R)
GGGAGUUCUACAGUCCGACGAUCUGUCUGCUUAACAAACUGUCUUUGUGAGUACAGAGAUUGGGUUUACCACUUCUGCUGAGGAGACCACUUAAAAUUCAUUCCUGAGUUUCCACUGUGGGAGAAUACCCAUGUGGAAUUCUCGGGUGCCAA	0.311
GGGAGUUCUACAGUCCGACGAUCACGGUGAGCUUUAAUGUCUAUGCUGACAGUUAGGUUUUGCUCUCUUUUGUAACAGGUUACGUAGACCAGCAGUGUUUAAAUCUAAAUACGUUGUGAGUCUGUUAUCUGUCUGGAAUUCUCGGGUGCCAA	0.379
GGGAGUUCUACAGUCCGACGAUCGGAGUGAAAUAACCAAGUCAAAACCAUGUACUAUCUCCUUGGGGGUUAGGGAUGCUAAGAAGAGCCCACAAAUAGAGGAUUACUCUUCCCCUGAAUCUCUAAACUCAGAAUGGAAUUCUCGGGUGCCAA	0.249
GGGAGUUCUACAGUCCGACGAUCAAUGGGAAUUCAUAAAGCAAGUUAGGAUUCACAAAUGUAGUGACCUAGUCCUUGGAGCUAAACUGGGAGUGGGUGCCAGGUGGAGGGUAGCAGGUCUGACCAGCCCUACAUGGAAUUCUCGGGUGCCAA	1.8
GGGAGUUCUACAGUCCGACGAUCAAGCGUGUCUGGAAAGGGGUUCAUGCCUCUAAGGGGCUUACGGAGAUGCUGAGGUACUGCCUCGCCUCAUGGGUGUGUCAGGUUUCUACACCUGUGUGCUUUUCUAGAAAUGGAAUUCUCGGGUGCCAA	0.343
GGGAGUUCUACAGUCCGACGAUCGUAGUUAAGGGGCAAAAGUCCAUUCUCAUUUGGUCCAUUAGUUCCAGCAAUUGAAAUUUAUGUGAAUUAUUUUGAUUGUAGAAGCACUAUAAUAUGUGCUGAAACUAAAUUGGAAUUCUCGGGUGCCAA	0.239
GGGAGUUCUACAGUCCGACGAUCUCUGUUCAGCCUUUCAUCUAUCCAUCCUUCCUCUUUAUUGGUAGAAGAAACAGUGGAGAGUAGCCACUUCUGGUUCUAGCACUUCUCUUUUGUUAAGAUAGGGUUUGGAUUGGAAUUCUCGGGUGCCAA	0.294
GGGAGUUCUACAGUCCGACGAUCGUUGCAUCUGGAAGUUCGAAGAAAUUACUUGAAAUAAAAAUAAAGAUUUCUAUAUAGAUAAAACCUAUAUGUAGAGAAAAAGCAAUUGUCUAGAAAACACAAAACUUCUGUGGAAUUCUCGGGUGCCAA	0.537
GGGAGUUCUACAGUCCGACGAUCUGUAUGUUGUGUAAAACAAAAAGCAUUGAUGAAAAAGCAAAAGGUGAUGUAUGUAUAUGAGAAAAUUAAUUGUACGAUAUCAUUCCAGUACGUUUUGUUGUACAUUUUAGUGGAAUUCUCGGGUGCCAA	0.913
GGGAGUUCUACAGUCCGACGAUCUUUCUUGUAUAAAUAGGAGUCAUGGGCGUUAGUUCUGUAGUAAUAACUUCCCAGCACCUGGACAUCUCUUCCAGAGUUAUCCCACUGGCUUGGUGUGUAUACAUUAGGGGUGGAAUUCUCGGGUGCCAA	0.257
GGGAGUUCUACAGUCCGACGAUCCACAGAUGUGAGCUACAGUUCGUUUCUGAAAGCUACCACAAGCUGGAAACUGGUGAUCAGUGUGGGGCUCACCUCUCCGUGGGUUAAAAAUGGUUUUAAAUGACACUGUAUGGAAUUCUCGGGUGCCAA	0.437
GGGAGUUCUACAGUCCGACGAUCUGUAAAGAGACACCAUGACAAAGACAACUCAUAUAAAAGGAAGUGUUGAGUUGGGGGCUUGCUUAUAGUUUCAGAGUUGAGUUUAUUUGCAUGGUGUCAGGCAGGCAGGAUGGAAUUCUCGGGUGCCAA	1.05

Some of these lines once more (series 3):
Strand	log2 enrichment
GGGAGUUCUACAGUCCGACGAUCACCAUGCAGGCGGGCAUCUUUGGGAAGUGGGGCAAGGGGGGGAUAGGGAGGGGGGUAACACUUUGGGAACAGGUGGUCCCAGGUCGUUUCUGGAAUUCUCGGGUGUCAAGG	0.952
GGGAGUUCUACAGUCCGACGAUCCACAGACAACACGCACCCACACAGACACAGAUGGAAGGGGUUGGGAUGGGGACAGGGUGCACAGCAGGGCGGGGUAGGACCCCAGCCCCUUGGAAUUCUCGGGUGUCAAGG	1.31
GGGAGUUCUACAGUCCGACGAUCCCUCUGGACGAGACCAGCCAGAUGAGCGACCUCCCGGUGAAGGUGAUCCACGUGGAGAGUGGGAAGAUCCUCACAGGCACAGAUGCCCCCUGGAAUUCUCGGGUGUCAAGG	0.0887
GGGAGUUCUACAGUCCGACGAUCCCUCAAGUCCUGUGCUACACAUCGUAUGUACCGAAUCGGGGCGGGCGGCGGGGAAAGUAUUAUGUUACGCCGUUCGGAUCUGCACUUCCAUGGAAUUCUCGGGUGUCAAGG	0.96
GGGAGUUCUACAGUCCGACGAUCUCAAGUCCUGUGCUACACAUCGUAUGUACCGAAUCGGAAAAAGGUUUUUGGAGGAAAGUAUUAUGUUACGCCGUUCGGAUCUGCACUUCCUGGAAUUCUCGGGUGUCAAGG	-0.625
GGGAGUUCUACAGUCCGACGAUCCUGUGCUACACAUCGUAUGUACCGAAUCGGGGAAAGGGGAAAAAAAGGGGUUUUUUUGGGGAAAGUAUUAUGUUACGCCGUUCGGAUCUGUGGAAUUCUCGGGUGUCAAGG	-0.204
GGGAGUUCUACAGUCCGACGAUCGUCCUGUGCUACACAUCGUAUGUACCGAAUCAAACCCCCAAACCCCCCCAAACCCAAAAAAGUAUUAUGUUACGCCGUUCGGAUCUGCACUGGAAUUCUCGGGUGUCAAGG	-0.224
